Measurements gathered from unrelated publications.
Each numbered part is a random draw from the data of one study; scales do not carry over between parts.

Study 1 — method: protein-binding microarray; molecule type: double-stranded DNA, one strand shown; sample: in vitro; concentration: not given; reading: higher = stronger binding; endpoint: E-score
Target: Transcriptional repressor CTCF (CTCF, Homo sapiens, UniProt P49711, residues 1-727, full length assumed)
UniProt P49711, sequence (whole entry, looked up): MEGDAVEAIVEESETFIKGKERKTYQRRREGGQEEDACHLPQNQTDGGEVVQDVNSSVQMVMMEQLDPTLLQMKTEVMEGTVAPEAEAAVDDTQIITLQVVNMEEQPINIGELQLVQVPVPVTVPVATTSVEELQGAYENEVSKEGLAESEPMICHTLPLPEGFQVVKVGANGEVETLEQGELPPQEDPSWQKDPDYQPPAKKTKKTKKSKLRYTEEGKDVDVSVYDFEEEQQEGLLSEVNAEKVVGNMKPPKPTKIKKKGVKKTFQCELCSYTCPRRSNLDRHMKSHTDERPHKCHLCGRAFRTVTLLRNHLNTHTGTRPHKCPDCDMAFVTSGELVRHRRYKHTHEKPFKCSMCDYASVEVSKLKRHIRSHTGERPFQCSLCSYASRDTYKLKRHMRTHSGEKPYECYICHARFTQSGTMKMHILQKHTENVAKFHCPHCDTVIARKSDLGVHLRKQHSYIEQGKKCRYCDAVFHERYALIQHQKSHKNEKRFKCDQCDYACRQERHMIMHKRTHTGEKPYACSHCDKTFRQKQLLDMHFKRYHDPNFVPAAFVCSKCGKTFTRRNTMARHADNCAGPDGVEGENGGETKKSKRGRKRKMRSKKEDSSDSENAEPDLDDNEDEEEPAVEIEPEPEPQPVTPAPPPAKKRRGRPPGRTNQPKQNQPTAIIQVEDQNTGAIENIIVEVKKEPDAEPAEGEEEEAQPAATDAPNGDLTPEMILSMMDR
Setting: k-mer, scored over probes, only values ≥0.25
CGCAATAC: 0.315
ATTAAACA: 0.299
GCAATTAC: 0.296
ATTTTTAA: 0.299
GGTATTAC: 0.281
AGTTTTAC: 0.295

Study 2 — method: RNA Bind-n-Seq; molecule type: RNA; sample: in vitro; concentration: 200 nM; setting: whole 134-nt RNA, ends assumed; with: 150 mM KCl; relative to: input library; reading: higher = stronger binding; endpoint: log2 enrichment
Target: Fragile X messenger ribonucleoprotein 1, C-terminal low-complexity region (Fmr1, Mus musculus, UniProt P35922)
Constant ends, left off below: GGGAGUUCUACAGUCCGACGAUC … UGGAAUUCUCGGGUGUCAAGG
GCAGGAAGUAAAAACAAAUGGAAAUGCUUCGGAUAGUGGCAGGGGUGGGGGUUGCUAAGGAAAGGGUGGGAUGGGAGUAAAUAAAGAGUU: 0.0252
AAGUCCUGUGCUACACAUCGUAUGUACCGAAUCGGGAAAAAAAGGGUGGGUUUGGGAAAGUAUUAUGUUACGCCGUUCGGAUCUGCACUU: 0.858
UUGCAUUUCGAACGCGUUCUAAGAUGCCCCUGAAAGAUGUUCCCCUGGGCCAAUUAGAGGCAGAGCUCCAAGCUCCAGACAUCACUCCAG: 0.419
UUACAGAUGUAGAGCUAAAACGACUGAAGGAUGCUUUCAAGAGGACCUGUGGACUCUCAUAUUACAUGGGCCAGCACUGCUUCAUCCGGG: 0.0846
CAAGUCCUGUGCUACACAUCGUAUGUACCGAAUCGGUGGUUUUUGGAAAAAAAGGAAAGUAUUAUGUUACGCCGUUCGGAUCUGCACUUC: -0.53
UUCCUCAAGUCCUGUGCUACACAUCGUAUGUACCGAAUCGGAGGUGGAGGAAAGUAUUAUGUUACGCCGUUCGGAUCUGCACUUCCAGCA: -0.928
CACAGACAACACGCAGCCACACAGACACAGAGGGAAGGGGUUGGGAUGGGGACAGGGUGCACAGCAGGGCGGGGUAGGACCCCAGCCCCU: 1.3
CCUGUGCUACACAUCGUAUGUACCGAAUCGGCCCCCCCGGGGCCCCCCCGGCCCCCCCGGGAAAGUAUUAUGUUACGCCGUUCGGAUCUG: -0.497

Study 3 — cell line: HEK-293T; read-out: pseudovirus infection; method: FDA-approved drug library screen; organism: VSV pseudotyped with SARS-CoV-2 spike; concentration: 10 µM; time: 16 h; relative to: vehicle-treated; endpoint: GFP-positive cells
CN(CCOc1ccc(CC2SC(=O)NC2=O)cc1)c1ccccn1 (centres unmarked): 114%
CC(C)C(=O)Nc1ccc([N+](=O)[O-])c(C(F)(F)F)c1: 150%
Cc1oncc1C(=O)Nc1ccc(C(F)(F)F)cc1: 86.4%
CC=CC(=O)N(CC)c1ccccc1C (mixture of isomers): 104%
O=C(NC[C@H]1CN(c2ccc(N3CCOCC3=O)cc2)C(=O)O1)c1ccc(Cl)s1: 85.7%

Study 4 — read-out: enzyme activity; action: inhibitor; endpoint: IC50
Target: Replicase polyprotein 1ab, main protease (rep, Severe acute respiratory syndrome coronavirus 2, UniProt P0DTD1)
NC(Cc1cc(O)c(O)cc1O)C(=O)O (centres unmarked): > 20 µM
CCC[C@H](NC(=O)/C(C#N)=C/c1cccc(Br)n1)c1ccccc1: > 20 µM
CC1(C)C(/C=C/C=C/C=C/C=C2\N(CCCCS(=O)(=O)O)c3ccc4ccccc4c3C2(C)C)=[N+](CCCCS(=O)(=O)[O-])c2ccc3ccccc3c21: 15.9 µM
CNC[C@H](O)c1ccc(O)c(O)c1: > 20 µM

Study 5 — method: RNA Bind-n-Seq; molecule type: RNA; sample: in vitro; concentration: not given; relative to: input RNA pool; reading: higher = stronger binding; endpoint: bound/input enrichment
Target: RING finger protein unkempt homolog, zinc fingers 1-6, GST-SBP tag (UNK, Homo sapiens, UniProt Q9C0B0, residues 30-357)
Setting: RNA with constant flanks, human and mouse sites, ends assumed
Constant ends, left off below: GGGAGUUCUACAGUCCGACGAUC … CAACAGAGGAUUGAGCAUCA
Construct (chain): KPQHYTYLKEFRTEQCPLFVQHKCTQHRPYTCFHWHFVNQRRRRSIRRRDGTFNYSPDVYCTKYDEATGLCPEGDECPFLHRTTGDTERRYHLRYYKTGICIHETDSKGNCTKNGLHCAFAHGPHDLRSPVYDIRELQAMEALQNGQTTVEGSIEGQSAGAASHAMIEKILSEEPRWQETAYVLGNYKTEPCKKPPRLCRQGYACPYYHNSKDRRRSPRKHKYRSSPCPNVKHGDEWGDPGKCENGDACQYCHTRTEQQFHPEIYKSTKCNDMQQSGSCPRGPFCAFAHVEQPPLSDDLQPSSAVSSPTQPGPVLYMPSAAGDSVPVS
GACAAAGCCUUCCAGAAAGAGAUAGGCCUCAAGACUCUGGUGUUCAAAGCUUACAGGUGUUUUUUCAUUGCUCAGUCCUAUGUGCUGGUGAAGAAGUGGAGCGAAGCCCUUGUCCUGUAU: 0.246 ratio
AGUGACUUCAAAGGGAAAUCAAGGAAAGACCAGUUUGCAUUUAUGCGAAAUCUGUGGUUGUAAAUUUUUUUUUUUUUACUUGAAGUUAAAUUUGUCUCUGGAGUUGGUAUAGCAGCAGUU: 0.469 ratio
AUUAGACUUCGGUUAGAGAACUGUGAAGAUCGGCUGAUUAGACAGAUUCGAACUCCCCUGGAAAGAGAUGAUUUGCAUGAAAGUGUGUUCAGAAUCACAGAACAGGAGAAACUAAAGAAA: 0.387 ratio
CAUAGCCUGAACAUCGUCCACCGUGAUAUCAAGCCAGAGAACCUGCUGGUGUAUGAGCACCAAGAUGGCAGCAAAUCACUGAAGCUGGGUGACUUUGGACUGGCCACCAUUGUAGACGGC: 0.157 ratio
UUCUUGAGACAGGGUCUGACUGUGAAACCCUGGCUAAUCUGGAACUCACUAUGUAGACCAGACUGGUCUUGAACUCACAGAGAUCCAACUGCCUUUGCCUCCCAAGUGUUGGGAUGAAAG: 0.0563 ratio
GAAGUAGAUUCCAAAGCAGCUUUAAUACCGGAUUGGUUACAAGAUAGACCAUCAAACAGAGAAAUGCCAUCUGAAGAAGGAACAUUAAAUGGUCUCACUUCUCCAUUUAAGCCAGCUAUG: 0.378 ratio
AUUGGCAACAAUAUCAAAAAAGAAACAGUGUUCUCUGAUGAUGAUUUCAAUAUUGAGCCGCUUAUUUCUGCAUUCCACAAAGUUGAGAAAUUUGCUAAGGAACUGCAAGGCAAAACAGAC: 0.12 ratio
ACUGAUUUAUAUGAUAUAAAACGUGCAGUGGUUCACACCCAUCUUCUUAACCCUGAGUGGUUAGUCAACUACUUUGGUUCCUUAUCAGUAGAAGACUCCCUAGAAUGUCUCAGAGCCAUG: 0.209 ratio

Study 6 — read-out: enzyme activity; action: inhibitor; concentration: 20 µM; endpoint: inhibition
Target: Replicase polyprotein 1ab, polymerase (rep, Severe acute respiratory syndrome coronavirus 2, UniProt P0DTD1)
OC(c1ccc(-c2ccc(CN3CCN(Cc4ccncc4)CC3)cc2)c(F)c1)(C(F)(F)F)C(F)(F)F: -0.02%
CC12CCC(C(=O)N(CCCCN3CCN(c4ccccn4)CC3)C1=O)C2(C)C (centres unmarked): 7.7%
CCOC(=O)c1ccc(NC2CCCCC2)c(N)c1: -3.16%
N#CCC(=O)NN: 3.01%
CCCCc1ccc(O)cc1O: -0.04%
CCCCCCCCCCCCCCC[C@@H](O)[C@@H](N)CO: -2.3%
Cc1ccc(CC2(O)CCN(CCOc3ccc(O)cc3)CC2)cc1: -0.48%
CC(=O)OC[C@H]1O[C@@](COC(C)=O)(O[C@H]2O[C@H](COC(C)=O)[C@@H](OC(C)=O)[C@H](OC(C)=O)[C@H]2OC(C)=O)[C@@H](OC(C)=O)[C@@H]1OC(C)=O: -4.2%
c1cc2c(cc1C1CCCCC1)c1c3n2CCNC3CCC1 (centres unmarked): -0.55%
CC(CNS(=O)(=O)C(C)C)c1ccc(-c2ccc(C#N)cc2)cc1 (centres unmarked): -0.21%
CC(=O)Nc1ccc(S(=O)(=O)c2ccc(NC(C)=O)cc2)cc1: -1.74%
CN(c1ccccc1CNc1nc(Nc2ccc3c(c2)CC(=O)N3)ncc1C(F)(F)F)S(C)(=O)=O: -12.4%
Oc1ccc(CC2NCCc3cc(O)c(O)cc32)cc1 (centres unmarked): -1.41%
Cc1cc(-c2cc(OC(=O)c3ccccc3)ccc2Cl)cc2nnc(Nc3ccc(OCCN4CCCC4)cc3)nc12: 1.97%
C[C@@]1(F)[C@H](O)[C@@H](CO)O[C@H]1n1ccc(N)nc1=O: 0.33%
CC(=O)OCC(=O)NCCCOc1cccc(CN2CCCCC2)c1: -2.18%
Clc1ccc(C2(c3ccc(-c4cn[nH]c4)cc3)CCNCC2)cc1: 2.3%
CN(C)CCc1c[nH]c2ccc(CS(=O)(=O)N3CCCC3)cc12: 1.97%
CN(C)[C@@H]1C(O)=C(C(N)=O)C(=O)[C@@]2(O)C(O)=C3C(=O)c4c(O)cccc4[C@@](C)(O)[C@H]3C[C@@H]12: 25.2%
CCCn1c(=O)c2[nH]c(-c3ccccc3)nc2n(CCC)c1=O: 0.61%
CC[C@@H]1/C=C(\C)C[C@H](C)C[C@H](OC)[C@H]2O[C@@](O)(C(=O)C(=O)N3CCCC[C@H]3C(=O)O[C@H](/C(C)=C/[C@@H]3CC[C@@H](O)[C@H](OC)C3)[C@H](C)[C@@H](O)CC1=O)[C@H](C)C[C@@H]2OC: -6.12%
COc1ccc(S(=O)(=O)N(CCO)c2ccccc2CN(C)C/C=C/c2ccc(Cl)cc2)cc1: -0.45%
CC(C)(C)NC(=O)[C@@H]1C[C@@H]2CCCC[C@@H]2CN1C[C@@H](O)[C@H](Cc1ccccc1)NC(=O)[C@H](CC(N)=O)NC(=O)c1ccc2ccccc2n1: 6.84%
CN(C)CCn1nnnc1SCC1=C(C(=O)O)N2C(=O)[C@@H](NC(=O)Cc3csc(N)n3)[C@H]2SC1: -1.57%
O=[N+]([O-])/N=C1\NCCN1Cc1ccc(Cl)nc1: -7.83%

For quick reference, copied from above (study 6):
CC(=O)OCC(=O)NCCCOc1cccc(CN2CCCCC2)c1: -2.18%
c1cc2c(cc1C1CCCCC1)c1c3n2CCNC3CCC1 (centres unmarked): -0.55%
CC(CNS(=O)(=O)C(C)C)c1ccc(-c2ccc(C#N)cc2)cc1 (centres unmarked): -0.21%
CN(C)CCn1nnnc1SCC1=C(C(=O)O)N2C(=O)[C@@H](NC(=O)Cc3csc(N)n3)[C@H]2SC1: -1.57%
CCOC(=O)c1ccc(NC2CCCCC2)c(N)c1: -3.16%
OC(c1ccc(-c2ccc(CN3CCN(Cc4ccncc4)CC3)cc2)c(F)c1)(C(F)(F)F)C(F)(F)F: -0.02%
CC[C@@H]1/C=C(\C)C[C@H](C)C[C@H](OC)[C@H]2O[C@@](O)(C(=O)C(=O)N3CCCC[C@H]3C(=O)O[C@H](/C(C)=C/[C@@H]3CC[C@@H](O)[C@H](OC)C3)[C@H](C)[C@@H](O)CC1=O)[C@H](C)C[C@@H]2OC: -6.12%
CC(C)(C)NC(=O)[C@@H]1C[C@@H]2CCCC[C@@H]2CN1C[C@@H](O)[C@H](Cc1ccccc1)NC(=O)[C@H](CC(N)=O)NC(=O)c1ccc2ccccc2n1: 6.84%
